Measurements pooled from the literature.
Parts stem from different laboratories: compare values within a part only.
Sequence of UniProt Q9UPZ9 (whole entry, looked up): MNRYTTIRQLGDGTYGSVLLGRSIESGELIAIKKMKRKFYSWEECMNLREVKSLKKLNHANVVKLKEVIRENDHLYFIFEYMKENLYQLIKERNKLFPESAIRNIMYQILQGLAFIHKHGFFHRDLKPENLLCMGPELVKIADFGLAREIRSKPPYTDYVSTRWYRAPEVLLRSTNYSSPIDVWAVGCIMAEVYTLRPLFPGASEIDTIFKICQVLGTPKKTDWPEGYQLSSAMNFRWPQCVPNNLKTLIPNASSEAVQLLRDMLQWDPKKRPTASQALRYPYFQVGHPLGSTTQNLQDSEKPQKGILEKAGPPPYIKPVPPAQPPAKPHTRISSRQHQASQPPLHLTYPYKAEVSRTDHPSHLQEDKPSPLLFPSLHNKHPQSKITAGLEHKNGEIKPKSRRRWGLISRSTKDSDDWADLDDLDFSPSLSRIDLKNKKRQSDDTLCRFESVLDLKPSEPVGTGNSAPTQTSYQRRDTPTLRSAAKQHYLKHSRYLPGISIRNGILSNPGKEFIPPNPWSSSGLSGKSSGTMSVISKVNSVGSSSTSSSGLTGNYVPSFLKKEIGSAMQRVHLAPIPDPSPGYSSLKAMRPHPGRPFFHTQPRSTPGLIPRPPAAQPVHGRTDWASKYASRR

Sample 1 — method: universal PBM; form: double-stranded DNA, one strand shown; medium: in vitro; tested at: 600 nM; reading: higher = stronger binding
Target: Sal-like protein 4, full length isoform A (SALL4, Homo sapiens, UniProt Q9UJQ4, residues 1-1053)
Sequence of UniProt Q9UJQ4 (whole entry, looked up): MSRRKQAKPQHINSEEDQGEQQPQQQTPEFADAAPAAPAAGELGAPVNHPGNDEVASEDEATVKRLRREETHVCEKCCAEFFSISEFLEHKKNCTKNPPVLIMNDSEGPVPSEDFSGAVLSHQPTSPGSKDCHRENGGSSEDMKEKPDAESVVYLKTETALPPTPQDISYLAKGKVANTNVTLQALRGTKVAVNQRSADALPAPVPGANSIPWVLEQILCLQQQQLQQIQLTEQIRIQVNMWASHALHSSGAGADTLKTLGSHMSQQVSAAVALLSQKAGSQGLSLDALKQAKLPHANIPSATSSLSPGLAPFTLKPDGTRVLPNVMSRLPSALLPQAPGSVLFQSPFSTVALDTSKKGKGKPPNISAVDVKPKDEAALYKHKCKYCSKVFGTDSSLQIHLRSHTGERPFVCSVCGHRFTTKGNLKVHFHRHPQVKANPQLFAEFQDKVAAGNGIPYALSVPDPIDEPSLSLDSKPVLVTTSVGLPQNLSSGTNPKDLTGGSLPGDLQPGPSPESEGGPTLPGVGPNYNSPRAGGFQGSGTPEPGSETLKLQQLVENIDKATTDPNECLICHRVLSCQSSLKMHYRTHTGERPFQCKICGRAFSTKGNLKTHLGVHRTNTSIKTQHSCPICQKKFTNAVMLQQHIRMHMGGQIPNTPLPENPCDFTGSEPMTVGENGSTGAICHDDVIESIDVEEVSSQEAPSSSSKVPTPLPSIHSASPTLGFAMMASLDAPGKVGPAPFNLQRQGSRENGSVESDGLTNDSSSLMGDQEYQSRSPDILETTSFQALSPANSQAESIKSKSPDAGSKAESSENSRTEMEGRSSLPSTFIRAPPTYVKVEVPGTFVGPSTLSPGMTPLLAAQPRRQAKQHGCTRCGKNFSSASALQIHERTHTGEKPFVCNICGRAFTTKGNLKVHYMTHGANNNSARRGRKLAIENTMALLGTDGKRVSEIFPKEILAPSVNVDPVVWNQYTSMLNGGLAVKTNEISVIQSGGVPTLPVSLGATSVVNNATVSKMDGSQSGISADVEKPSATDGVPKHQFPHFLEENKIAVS
Setting: 8-mer, flanks averaged, mean of replicates
Sequence	E-score
TAGTCAAA	0.276
ATAAGCTG	0.153
AGAACCAG	-0.133
ATAGTAAC	0.237
AATCAGAA	0.128
AAGACTTA	0.171
ACTCCTCG	-0.0497
CGAGAAGA	-0.0251

Sample 2 — method: RNA Bind-n-Seq; form: RNA; medium: in vitro; tested at: not given; reference: input RNA pool; reading: higher = stronger binding
Target: RING finger protein unkempt homolog, zinc fingers 1-6, GST-SBP tag (UNK, Homo sapiens, UniProt Q9C0B0, residues 30-357)
Sequence of UniProt Q9C0B0 (30-357, looked up): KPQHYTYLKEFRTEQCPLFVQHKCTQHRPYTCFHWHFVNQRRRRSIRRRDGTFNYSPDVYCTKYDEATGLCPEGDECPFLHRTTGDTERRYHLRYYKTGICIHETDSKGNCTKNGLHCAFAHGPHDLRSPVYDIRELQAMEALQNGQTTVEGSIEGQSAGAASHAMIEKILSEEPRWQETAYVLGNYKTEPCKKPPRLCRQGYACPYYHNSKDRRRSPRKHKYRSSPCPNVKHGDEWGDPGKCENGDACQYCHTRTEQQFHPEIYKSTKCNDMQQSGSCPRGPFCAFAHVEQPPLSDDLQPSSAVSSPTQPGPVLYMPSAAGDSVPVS
Setting: RNA with constant flanks, human-mouse chimeric sites, ends assumed
Constant ends, left off below: GGGAGUUCUACAGUCCGACGAUC … CAACAGAGGAUUGAGCAUCA
Sequence	bound/input enrichment
UCGGAUGCUGUGCUGGGUCACUUUUCAUAUCCUGAUCCUUCCCAGUGGACAGAUGAAGAACUGGGAAUCCCUCCUGAUGACGAGGACUGACACUGUAAACUCUCUGGACGAGUAGGAGCA	0.634 ratio
GAGCGUCUUGCCCGCACUGGGAUCAUCGUGACCACUAGUGAGGCUGUCCUCCUACAGCUGGUGGCUGAUAAGGACCAUCCAAAAUUCAAGGAAAUUCAGAACCUAAUUAAGGCGAGUGCC	0.127 ratio
CACGUGUCUGCAGUACUUGAUGUGGACUACUCUCCCACUGGGAAGGAGUUUGUGUCUGCCAGCUUUGAUAAGUCUAUUCGAAUCUUUCCUGUGGACAAGAGCCGAAGCAGGGAAGUGUAU	0.104 ratio
UUUGUAACUUAUCUGUAAGGUUCCCCCCCCCUACUGUCAAAAAAUAUGCAUGUAUAGUAAUUAGGACUUCAUUCCUCCAUGUUUUCUUCCCUUAUCUUACUGUCAUUGUCCUUAAACCUU	2.11 ratio
UGUGAACUGUCUCUUGAUUGGGGUCUACAAGAUGACUUUUCCUGGCACAUAUUCCAAAGCAAAGACUUUGUUACCUGCUGCUUAUUGUCUAAUUUACAGGGAUAUUUAAUUUUGUCAGGU	0.3 ratio
AAAUCAUGUGUGUCCAAUAUUGAAAGUGCUUUAUCUACACUCCAGUAUGUAAGCAGUAUAGUAGUUUCUUUAGAGAAUAGGUCUGCCAUUGUAAAGUACAAUGCAAGCUUAGUCACUCCA	1.6 ratio
GCGGCAGAAUCAUGGUGGACAUAAUGCACUUGCCCAGAGCGCGCGUCAACGCCAGCAUGUUACCACAGUAUAUCGACCGGCCCGUGUGCUUCGUGGGGAAGCUGGAAAAGAUUCAUCCCA	0.1 ratio
CUGUGUGUGCUGAAUAAAUGGCUUGUAAAGAAGUUUUCCAAGUUGUAACCCAUGUACGUUAUUAUAGUUGCUGCAAAAUGUUCUUCCUGAUAUUGAUUUUAUUUGUUAACUGAAGGUCUC	0.647 ratio

Sample 3 — method: protein binding microarray; form: double-stranded DNA, one strand shown; medium: in vitro; tested at: not given; reference: not given; reading: higher = stronger binding
Target: Histone acetyltransferase KAT6A, both winged helices, GST fusion (KAT6A, Homo sapiens, UniProt Q92794, residues 1-181)
Setting: 8-mer, flanks averaged, mean of 2 arrays, mostly near background
Residues (chain): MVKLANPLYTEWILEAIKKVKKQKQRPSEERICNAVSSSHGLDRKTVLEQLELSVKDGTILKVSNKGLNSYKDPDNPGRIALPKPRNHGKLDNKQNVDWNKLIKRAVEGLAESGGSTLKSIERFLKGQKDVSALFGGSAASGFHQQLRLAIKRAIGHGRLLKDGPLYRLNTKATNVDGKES
Sequence	E-score
GATGATGC	-0.0121
AATTTACC	0.00436
CACGGACG	0.236
TGATATAA	-0.025
ACATGACG	0.168
ATATTCCC	0.0926
AGAGCCAG	-0.191
AGGCCGTA	0.206

Mixed results
SMILES	target	assay	setting	endpoint	result
CCS(=O)(=O)c1cc2cc(C[C@@](O)(CC(C)(C)c3ccc(F)cc3C(N)=O)C(F)(F)F)[nH]c2cn1	Serine/threonine-protein kinase ICK (CILK1, Homo sapiens, UniProt Q9UPZ9)	cell-free assay, competition with immobilised ligand	1 µM	remaining binding	97%
